Earlier results, collected from citations in different studies.
Compare with care: the assays were run in different laboratories. In brackets after ≈: the same amount, converted by molar mass.
Chain of UniProt Q9UM73 (whole entry, unmodified, looked up): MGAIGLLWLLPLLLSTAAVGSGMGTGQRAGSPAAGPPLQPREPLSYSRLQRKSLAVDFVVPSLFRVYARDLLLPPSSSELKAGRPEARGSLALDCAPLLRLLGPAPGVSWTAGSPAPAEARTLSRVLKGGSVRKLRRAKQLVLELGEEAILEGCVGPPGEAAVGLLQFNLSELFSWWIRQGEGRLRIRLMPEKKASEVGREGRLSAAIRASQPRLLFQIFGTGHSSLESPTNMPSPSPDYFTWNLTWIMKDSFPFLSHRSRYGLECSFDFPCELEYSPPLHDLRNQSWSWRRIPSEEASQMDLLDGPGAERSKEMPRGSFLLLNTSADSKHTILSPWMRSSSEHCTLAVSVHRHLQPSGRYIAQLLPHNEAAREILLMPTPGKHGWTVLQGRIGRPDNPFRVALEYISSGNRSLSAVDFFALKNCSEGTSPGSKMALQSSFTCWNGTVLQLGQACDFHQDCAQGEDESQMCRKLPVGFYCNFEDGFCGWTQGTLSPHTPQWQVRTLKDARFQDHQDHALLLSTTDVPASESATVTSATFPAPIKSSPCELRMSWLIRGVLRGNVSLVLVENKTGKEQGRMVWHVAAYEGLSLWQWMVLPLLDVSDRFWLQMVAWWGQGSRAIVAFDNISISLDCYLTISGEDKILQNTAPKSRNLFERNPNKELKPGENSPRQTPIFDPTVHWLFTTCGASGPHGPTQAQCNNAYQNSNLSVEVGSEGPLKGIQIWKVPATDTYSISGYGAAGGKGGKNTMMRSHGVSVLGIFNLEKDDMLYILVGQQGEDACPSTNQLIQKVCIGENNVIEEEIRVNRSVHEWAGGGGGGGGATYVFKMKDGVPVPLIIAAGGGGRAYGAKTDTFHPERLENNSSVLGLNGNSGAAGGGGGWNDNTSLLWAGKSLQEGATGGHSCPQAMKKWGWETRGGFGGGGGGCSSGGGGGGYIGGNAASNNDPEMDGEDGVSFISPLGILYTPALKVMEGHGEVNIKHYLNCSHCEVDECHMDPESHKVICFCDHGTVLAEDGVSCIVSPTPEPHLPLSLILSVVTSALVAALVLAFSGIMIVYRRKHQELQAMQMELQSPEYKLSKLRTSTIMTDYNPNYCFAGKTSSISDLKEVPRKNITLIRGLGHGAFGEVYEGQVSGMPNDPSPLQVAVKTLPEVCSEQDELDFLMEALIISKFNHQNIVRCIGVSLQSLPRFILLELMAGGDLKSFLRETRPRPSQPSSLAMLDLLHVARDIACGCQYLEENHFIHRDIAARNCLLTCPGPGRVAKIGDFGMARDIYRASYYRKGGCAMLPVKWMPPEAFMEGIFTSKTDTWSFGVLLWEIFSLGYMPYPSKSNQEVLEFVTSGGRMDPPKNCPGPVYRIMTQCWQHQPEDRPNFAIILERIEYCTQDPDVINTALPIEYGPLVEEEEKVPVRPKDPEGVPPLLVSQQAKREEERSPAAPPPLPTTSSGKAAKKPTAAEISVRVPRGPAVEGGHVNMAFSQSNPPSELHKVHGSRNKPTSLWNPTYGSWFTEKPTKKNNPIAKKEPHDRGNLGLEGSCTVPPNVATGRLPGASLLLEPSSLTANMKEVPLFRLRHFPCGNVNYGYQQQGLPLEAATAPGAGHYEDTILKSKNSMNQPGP

| SMILES | tested on | test | system | setting | how to read | quantity | value |
| --- | --- | --- | --- | --- | --- | --- | --- |
| Nc1ccn([C@@H]2CS[C@H](CO)O2)c(=O)n1 | – | – | human | – | – | free Cmax | 19.5 µM |
| CN(C)C(=O)c1cc2cnc(Nc3ccc(N4CCNCC4)cn3)nc2n1C1CCCC1 | – | item: constipation | advanced solid tumour or lymphoma patients | dose not given, 3 weeks on 1 week off, any grade | baseline: patients | adverse event incidence | 22.4% |
| Cc1cc2c(s1)Nc1ccccc1N=C2N1CCN(C)CC1 | – | – | healthy male volunteers | dose not given, with: carbamazepine 200 mg twice daily for 2 weeks | – | Cmax decrease | 25% |
| CC(=O)c1c(C)c2cnc(Nc3ccc(N4CCNCC4)cn3)nc2n(C2CCCC2)c1=O | – | – | beagle dog female | 0.6 mg/kg | – | AUC(0-24 h) | 543 ng·h/mL |
| CCOc1cc2ncc(C#N)c(Nc3ccc(OCc4ccccn4)c(Cl)c3)c2cc1NC(=O)/C=C/CN(C)C | – | – | – | in vitro, with: glutathione | – | half-life | ~0.5 h |
| CCCC(CCC)C(=O)O | – | – | supercritical CO2 | – | – | crossover pressure | 170 to 190 bar |
| Cc1cn([C@H]2C[C@H](N=[N+]=[N-])[C@@H](CO)O2)c(=O)[nH]c1=O | – | – | mouse | – | – | oral bioavailability | 86% |
| CN(C)CCC[C@@]1(c2ccc(F)cc2)OCc2cc(C#N)ccc21 | – | – | human adolescents aged 15 years | – | – | CL/F | 20.8 L/h |
| O=C(NC[C@H]1CN(c2ccc(N3CCOCC3=O)cc2)C(=O)O1)c1ccc(Cl)s1 | – | – | plasma | – | – | plasma protein binding | ~90% |
| COC1CC2CCC(C)C(O)(O2)C(=O)C(=O)N2CCCCC2C(=O)OC(C(C)CC2CCC(OCCO)C(OC)C2)CC(=O)C(C)/C=C(\C)C(O)C(OC)C(=O)C(C)CC(C)/C=C/C=C/C=C/1C (stereo not drawn) | – | – | water | – | – | solubility | < 1000 µg/mL |
| Nc1ccn([C@@H]2O[C@H](CO)[C@@H](O)C2(F)F)c(=O)n1 | – | – | human | intravenous infusion, 1000 mg/m2, 30 min | baseline: dose | total urinary excretion | 92 to 98% |
| C=C[C@]1(C)C[C@@H](OC(=O)CSc2ccccc2N)[C@]2(C)[C@H](C)CC[C@]3(CCC(=O)[C@H]32)[C@@H](C)[C@@H]1O | – | – | healthy adult chickens | intramuscular | – | elimination half-life | 5.5 h |
| COc1cc2nccc(Oc3ccc(NC(=O)C4(C(=O)Nc5ccc(F)cc5)CC4)cc3)c2cc1OC | – | – | cancer patients, real-world | dose not given | – | median time to dose reduction | 1.8 months |
| Nc1cccc2c1C(=O)N(C1CCC(=O)NC1=O)C2=O (stereo not drawn) | – | – | relapsed refractory multiple myeloma patients | dose not given, grade up to 4 | – | incidence of grade 3 neutropenia | 47% |
| Nc1cc(C(F)(F)F)c(-c2nc(N3CCOCC3)nc(N3CCOCC3)n2)cn1 | ALK tyrosine kinase receptor (ALK, Homo sapiens, UniProt Q9UM73, C1156Y) | enzyme activity | – | 10 µM | baseline: untreated | remaining activity | 95% |
| c1ccc2ccccc2c1 | – | substrate | human liver microsomes | – | – | Km | 8.06 µM |
| CC(C)Nc1nc2cc(Cl)c(Cl)cc2n1[C@H]1O[C@@H](CO)[C@H](O)[C@@H]1O | – | – | healthy volunteers | dose not given | – | terminal elimination half-life | 3 to 4.8 h |
| CN(C)CCc1c[nH]c2ccc(C[C@H]3COC(=O)N3)cc12 | – | – | water | – | – | solubility | < 1000 µg/mL |
| CC(C)c1nc(CN(C)C(=O)N[C@H](C(=O)N[C@@H](Cc2ccccc2)C[C@H](O)[C@H](Cc2ccccc2)NC(=O)OCc2cncs2)C(C)C)cs1 | – | – | plasma | concentration not given, total, steady state | – | Cmax | 15 µM |
| CO[C@]1(C(=O)N[C@@H](C)c2ccc(-n3cc(F)cn3)nc2)CC[C@H](c2nc(C)cc(Nc3cc(C)[nH]n3)n2)CC1 | – | – | human | dose not given | baseline: dose | cumulative radioactivity recovery | 78.6% |
| CC1(C)S[C@@H]2[C@H](NC(=O)[C@H](N)c3ccccc3)C(=O)N2[C@H]1C(=O)O | Pseudomonas aeruginosa | – | clinical isolate RKI-No_347/12 | – | – | MIC | > 16 µg/mL |

| SMILES | tested on | test | system | setting | how to read | quantity | value |
| --- | --- | --- | --- | --- | --- | --- | --- |
| Cc1ncc([N+](=O)[O-])n1CCO | – | – | water | – | – | solubility | < 1000 µg/mL |
| Cc1c(OCC(F)(F)F)ccnc1C[S+]([O-])c1nc2ccccc2[nH]1 (stereo not drawn) | – | – | – | – | – | plasma half-life | ~1.5 h |
| CCCOc1ccc(S(=O)(=O)N2CCN(CCO)CC2)cc1-c1nc2c(CCC)cn(CC)c2c(=O)[nH]1 | – | – | healthy male volunteers | dose not given, with concomitant alcohol | – | diastolic blood pressure change | -13.8 mmHg |
| Cn1c(Cn2ccc(C(F)(F)F)c(Oc3cc(Cl)cc(C#N)c3)c2=O)n[nH]c1=O | – | – | human subjects | up to 48 weeks | – | Fatigue incidence | 8.1% |
| CCN1CCN(Cc2ccc(Nc3ncc(F)c(-c4cc(F)c5nc(C)n(C(C)C)c5c4)n3)nc2)CC1 | – | – | water | – | – | solubility | < 1000 µg/mL |
| COc1cc(N2CCC(N3CCN(C)CC3)CC2)ccc1Nc1ncc(Cl)c(Nc2ccccc2P(C)(C)=O)n1 | – | – | human, feces | oral, 180 mg | baseline: radioactivity | unchanged compound excreted | 41% |
| Cc1nc(NC(=O)N2CCC[C@H]2C(N)=O)sc1-c1ccnc(C(C)(C)C(F)(F)F)c1 | – | – | human | oral, 300 mg single dose, with: high-fat high-calorie meal | baseline: fasted | increase in AUC | 73% |
| CC(C)(/C=C(\C#N)C(=O)N1CCC[C@@H](n2nc(-c3ccc(Oc4ccccc4)cc3F)c3c(N)ncnc32)C1)N1CCN(C2COC2)CC1 | – | – | human | 600 mg once daily | – | AUC(0-last) | 1060 ng·h/mL |
| CCc1cc(/C(C)=N/OCc2ccc(C3CCCCC3)c(C(F)(F)F)c2)ccc1CN1CC(C(=O)O)C1 | – | population PK | human, CYP2C9*1/*1 | – | – | clearance | 3.12 L/h |
| C[C@H](Cn1cnc2c(N)ncnc21)OCP(=O)(O)O | – | – | plasma | – | – | plasma fraction unbound | 0.93 |
| C[C@H]1COCCN1c1nc(-c2cnc(N)cc2C(F)F)nc(N2CCOCC2)n1 | PA-1 | – | – | – | – | GI50 | 694 nM |
| CNCc1cc(-c2ccccc2F)n(S(=O)(=O)c2cccnc2)c1 | – | – | human, plasma | 40 mg multiple dose, observed clinical data | – | Ctrough | 4.49 ng/mL |
| Nc1cccc2c1CN(C1CCC(=O)NC1=O)C2=O (stereo not drawn) | – | – | water | – | – | solubility | < 1000 µg/mL |
| C[Si](C)(C)O[Si](C)(C)O[Si](C)(C)C | – | – | 1-octanol/water | 25 °C | – | log KOW | 5.35 |
| CC(C)(C)OC[C@@H]1C(=O)NCCN1C(=O)C[C@H](N)Cc1cc(F)c(F)cc1F | – | – | human | – | – | elimination half-life | 32.9 to 38.8 h |
| CNC(C)C1CCC(N)C(OC2C(N)CC(N)C(OC3OCC(C)(O)C(NC)C3O)C2O)O1 (stereo not drawn) | Pseudomonas aeruginosa | – | clinical isolate RKI-No_589/12 | – | – | MIC | 8 µg/mL (≈ 16.8 µM) |
| Cc1nc(Nc2ncc(C(=O)Nc3c(C)cccc3Cl)s2)cc(N2CCN(CCO)CC2)n1 | – | – | – | pH 7 | – | aqueous solubility | < 1 µg/mL |
| Cc1nnc(SCC2=C(C(=O)O)N3C(=O)[C@@H](NC(=O)Cn4cnnn4)[C@H]3SC2)s1 | – | – | plasma | literature data | – | free Cmax | 208 µM |
| NC(=O)c1ncn([C@@H]2O[C@H](CO)[C@@H](O)[C@H]2O)n1 | – | – | human | – | – | free Cmax | 27.9 µM |
| Cc1nc(-c2ccc(OCC(C)C)c(C#N)c2)sc1C(=O)O | – | – | plasma | concentration not given, total, steady state | – | Cmax | 16.8 µM |
| CC(C)COc1ccc(CNC(=O)N(Cc2ccc(F)cc2)C2CCN(C)CC2)cc1 | – | – | plasma | – | – | free Cmax | 0.00125 µM |

| SMILES | tested on | test | system | setting | how to read | quantity | value |
| --- | --- | --- | --- | --- | --- | --- | --- |
| COCCc1ccc(OCC(O)CNC(C)C)cc1 (stereo not drawn) | – | – | human fasted | 200 mg multiple doses, day 13, mean | – | AUC(0-24 h) | 1860 ng·h/mL |
| CNS(=O)(=O)Cc1ccc2[nH]cc(CCN(C)C)c2c1 | – | – | human | – | – | fraction absorbed | 57% |
| CS(=O)(=O)c1ccc(C(=O)Nc2ccc(Cl)c(-c3ccccn3)c2)c(Cl)c1 | – | – | FaSSIF | literature value | – | solubility | 3 µg/mL (≈ 7.12 µM) |
| Nc1nc(=O)n(C2CSC(CO)O2)cc1F (stereo not drawn) | – | – | rat | 1000 mg/kg | – | bioavailability | 73% |
| CN(C)C(=N)N=C(N)N | – | – | human, liver failure patients | – | – | unbound fraction | 1 |
| C[C@@H](O)[C@H]1C(=O)N2C(C(=O)O)=C(SCCN=CN)C[C@H]12 | – | perpetrator, item: valproic acid | human | dose not given | baseline: without compound | half-life reduction | 51% |
| Cc1cn([C@@H]2C[C@@H](O)[C@H](CO)O2)c(=O)[nH]c1=O | – | – | human | 600 mg | – | oral bioavailability | 68% |
| CC(C)Cc1ccc(C(C)C(=O)O)cc1 (stereo not drawn) | – | – | water | – | – | solubility | < 1000 µg/mL |
| COc1cc2c(Oc3ccc4[nH]c(C)cc4c3F)ccnc2cc1OCC1(N)CC1 | – | – | adult human | 12 mg single dose | – | AUC(0-120 h) | 617 ng/mL∗h |
| Nc1ccn([C@H]2CO[C@@H](CO)S2)c(=O)n1 | – | – | human | 400 mg | – | oral bioavailability | 65 to 80% |
| C[C@]12C=CC(=O)C=C1CC[C@H]1[C@@H]3C[C@@H](O)[C@](O)(C(=O)CO)[C@@]3(C)C[C@H](O)[C@@]12F | – | – | human | concentration not given, clinical | – | diarrhoea incidence | 0% |
| Cc1cc(Nc2ncc(Cl)c(Nc3ccccc3S(=O)(=O)C(C)C)n2)c(OC(C)C)cc1C1CCNCC1 | – | – | FaSSIF | literature value | – | solubility | 5.58 µg/mL (≈ 10 µM) |
| Nc1ccc(S(=O)(=O)NC(=O)c2ccccc2)cc1 | – | – | supercritical CO2 | – | – | crossover pressure | 160 to 180 bar |
| CCCS(=O)(=O)Nc1ccc(F)c(C(=O)c2c[nH]c3ncc(-c4ccc(Cl)cc4)cc23)c1F | – | – | mice, average weight 30 g | dose not given | – | volume of distribution | 7.9 mL |
| Cc1cc2c(s1)Nc1ccccc1N=C2N1CCN(C)CC1 | – | – | human | – | – | free Cmax | 0.00289 µM |
| CC(C)(C)c1cc(C(C)(C)C)c(NC(=O)c2c[nH]c3ccccc3c2=O)cc1O | – | – | human, plasma | – | – | fraction unbound | 0.001 |
| Cc1cc(Nc2ncc(Cl)c(Nc3ccccc3S(=O)(=O)C(C)C)n2)c(OC(C)C)cc1C1CCNCC1 | – | – | healthy humans | concentration not given, low-fat snack | baseline: fasting | exposure increase | 58% |
| Cc1ccc(NC(=O)c2ccc(CN3CCN(C)CC3)cc2)cc1Nc1nc(-c2cccnc2)cs1 | – | – | human, urine | time not given, parent plus metabolites | – | dose recovered in urine | ~10% |
| C#C[C@]1(O)CC[C@H]2[C@@H]3CCc4cc(O)ccc4[C@H]3CC[C@@]21C | – | – | human, fed | 0.025, single dose | – | Cmax, mean | 0.0962 ng/mL |
| CCCCCOC(=O)Nc1nc(=O)n([C@@H]2O[C@H](C)[C@@H](O)[C@H]2O)cc1F | – | – | human | concentration not given, clinical | – | diarrhoea incidence | 55% |
| Cc1cc(-c2nccc3c2ccn3CC(=O)Nc2ccc(-c3cnccn3)cn2)ccn1 | – | – | rat | 20 mg/kg/day, 1 month, repeat dosing | – | AUC(0-24 h), total | 49.4 µM·h |

A few entries again:
| SMILES | tested on | test | system | setting | how to read | quantity | value |
| --- | --- | --- | --- | --- | --- | --- | --- |
| Nc1cccc2c1CN(C1CCC(=O)NC1=O)C2=O (stereo not drawn) | – | – | water | – | – | solubility | < 1000 µg/mL |
| CCCC(CCC)C(=O)O | – | – | supercritical CO2 | – | – | crossover pressure | 170 to 190 bar |
| CNS(=O)(=O)Cc1ccc2[nH]cc(CCN(C)C)c2c1 | – | – | human | – | – | fraction absorbed | 57% |
| CC(C)(C)OC[C@@H]1C(=O)NCCN1C(=O)C[C@H](N)Cc1cc(F)c(F)cc1F | – | – | human | – | – | elimination half-life | 32.9 to 38.8 h |
| Cc1cc(-c2nccc3c2ccn3CC(=O)Nc2ccc(-c3cnccn3)cn2)ccn1 | – | – | rat | 20 mg/kg/day, 1 month, repeat dosing | – | AUC(0-24 h), total | 49.4 µM·h |
| C[Si](C)(C)O[Si](C)(C)O[Si](C)(C)C | – | – | 1-octanol/water | 25 °C | – | log KOW | 5.35 |
| COc1cc2c(Oc3ccc4[nH]c(C)cc4c3F)ccnc2cc1OCC1(N)CC1 | – | – | adult human | 12 mg single dose | – | AUC(0-120 h) | 617 ng/mL∗h |
